Measured values of several laboratories.
Numbered parts are unrelated; each lists some results of a single study. Changes are numbered by the printed parent chain.
UniProt P38919, sequence (whole entry, looked up): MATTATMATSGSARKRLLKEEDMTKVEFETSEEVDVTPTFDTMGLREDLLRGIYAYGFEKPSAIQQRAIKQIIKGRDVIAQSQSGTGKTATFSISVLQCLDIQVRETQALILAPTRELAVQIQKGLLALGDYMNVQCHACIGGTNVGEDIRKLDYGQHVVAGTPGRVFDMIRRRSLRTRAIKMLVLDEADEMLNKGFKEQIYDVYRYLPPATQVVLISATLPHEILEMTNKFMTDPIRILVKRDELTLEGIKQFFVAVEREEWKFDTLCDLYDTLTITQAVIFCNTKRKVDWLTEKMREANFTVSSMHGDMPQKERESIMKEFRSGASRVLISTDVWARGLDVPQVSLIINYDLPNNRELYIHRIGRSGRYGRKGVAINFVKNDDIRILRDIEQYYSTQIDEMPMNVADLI

Sample 1
Target: inorganic phosphate, free oxyanion
Technique: microfluidic competitive inhibition
Matrix: in vitro, cell-free expressed
Concentration: not given
Setting: derived from inhibition constants, unchanged parent 615000 nM
Direction: lower = stronger binding
Starting sequence: PafA, mature enzyme, eGFP fusion (Elizabethkingia meningoseptica, UniProt Q9KJX5); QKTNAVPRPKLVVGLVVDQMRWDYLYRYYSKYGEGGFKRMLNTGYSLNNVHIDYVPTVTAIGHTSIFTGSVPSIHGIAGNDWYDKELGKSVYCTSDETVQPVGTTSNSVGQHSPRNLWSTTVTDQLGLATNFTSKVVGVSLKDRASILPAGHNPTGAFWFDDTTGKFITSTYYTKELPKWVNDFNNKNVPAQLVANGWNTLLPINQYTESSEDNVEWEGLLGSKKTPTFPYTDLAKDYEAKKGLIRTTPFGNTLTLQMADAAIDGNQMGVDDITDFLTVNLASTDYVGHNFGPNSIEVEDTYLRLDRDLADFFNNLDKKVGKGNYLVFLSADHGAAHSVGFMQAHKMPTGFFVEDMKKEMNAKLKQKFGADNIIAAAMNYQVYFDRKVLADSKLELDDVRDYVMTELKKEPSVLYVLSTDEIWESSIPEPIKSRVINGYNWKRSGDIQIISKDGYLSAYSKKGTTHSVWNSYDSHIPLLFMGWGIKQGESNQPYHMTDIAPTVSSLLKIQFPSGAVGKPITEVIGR
Change	phosphate dissociation constant
A150V	645 µM
K409V	709 µM
E297G	235 µM
F250G	477 µM
G334A	595 µM
W180G	549 µM
G79A	865 µM
D264V	655 µM

Sample 2
Target: CCNB2, cyclin fold, Cln2 fusion (human)
Technique: yeast growth competition, sequencing
Matrix: yeast
Setting: weak parent motif
Baseline: not given
Direction: higher = stronger binding
Starting sequence: viral docking peptide; KGVKRKLFAEDSS; partner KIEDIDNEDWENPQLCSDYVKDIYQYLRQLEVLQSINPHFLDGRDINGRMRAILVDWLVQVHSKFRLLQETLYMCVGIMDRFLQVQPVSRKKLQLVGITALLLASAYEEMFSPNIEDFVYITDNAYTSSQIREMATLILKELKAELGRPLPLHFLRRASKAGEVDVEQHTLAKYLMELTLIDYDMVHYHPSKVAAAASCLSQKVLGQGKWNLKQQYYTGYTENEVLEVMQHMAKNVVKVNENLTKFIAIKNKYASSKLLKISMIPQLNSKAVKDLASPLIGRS
Change	normalised enrichment score
KGVKRPLFAEDSS [K6P]	0.575
KCVKRKLFAEDSS [G2C]	1.12
KGVKRKLAAEDSS [F8A]	0.275
KGVKRKLFAENSS [D11N]	0.695
KGVKRMLFAEDSS [K6M]	0.746
KTVKRKLFAEDSS [G2T]	0.358
KGVKRKLFAEISS [D11I]	0.772
KGVKRKLFAEDVS [S12V]	0.961

Single results of other studies
Compound	tested on	assay	conditions	quantity	value
Cc1nccc(COC(=O)N2C[C@@H]3[C@@H](CNC(=O)c4ccc5[nH]nnc5c4)[C@@H]3C2)n1	5-hydroxytryptamine receptor 2A (HTR2A, Homo sapiens, UniProt P28223)	binding, radioligand binding	10 µM	inhibition	7.65%
Nc1nc(N)nc(NC2CC2)n1	A-375		100 µM, 18 h	viability	69%
COC(=O)[C@H]1[C@H](c2ccccc2)[C@]2(c3ccc(OC)cc3)Oc3cc(OC)cc(OC)c3[C@@]1(O)C2O (stereo partly shown)	Eukaryotic initiation factor 4A-III (Homo sapiens, UniProt P38919)	RNA clamping, fluorescence polarization	concentration not given, together with: FAM-labelled poly r(AG)8 RNA	fluorescence polarization change	-5.4 mP

A few entries again (sample 1):
Change	phosphate dissociation constant
W180G	549 µM
G79A	865 µM
